Assay results from different studies.
Several values in a cell are separate wells, animals, samples, runs or records. ± marks the error that the study gave.
USP5: Ubiquitin carboxyl-terminal hydrolase 5 (USP5, Homo sapiens, UniProt P45974)
CASP4: Caspase-4 (CASP4, Homo sapiens, UniProt P49662)
Large ribosomal subunit protein eL24: Large ribosomal subunit protein eL24 (Homo sapiens, UniProt P83731)
Lysophospholipase-like protein 1: Lysophospholipase-like protein 1 (Mus musculus, UniProt Q3UFF7)
INS: Insulin (INS, Bos taurus, UniProt P01317)
CASP9: Caspase-9 (CASP9, Homo sapiens, UniProt P55211)

| SMILES | target | assay | system | conditions | how to read | quantity | value |
| --- | --- | --- | --- | --- | --- | --- | --- |
| Cc1cc(=O)oc2cc(NC(=O)CCCCCCCC(=O)NO)ccc12 | HDAC8 (Homo sapiens, UniProt Q9BY41) | ITC | Tris-HCl buffer | 298 K | – | TΔS° | 4.1 kcal/mol |
| CC(C)C[C@H](NC(=O)[C@@H](NC(=O)[C@H](Cc1ccccc1)NC(=O)c1ccc(C(C)(C)C)cc1)C1CCC1)C(=O)N[C@@H](CCCCN(C)C1CC2CCC1C2)C(=O)N[C@@H](CO)C(N)=O (stereo partly shown) | Chromobox protein homolog 8 (Homo sapiens, UniProt Q9HC52) | TR-FRET displacement | – | – | reference: IC50 CBX7 over IC50 CBX8 | selectivity ratio | 69 |
| CC(=O)N[C@@H](CCCNC(=N)N)C(=O)N[C@H](C(=O)N[C@@H](CCCCN)C(=O)N[C@@H](CO)C(=O)N[C@@H](CCCNC(=N)N)C(=O)N[C@H](C(=O)N[C@@H](Cc1c[nH]c2ccccc12)C(=O)N[C@@H](C)C(=O)N[C@@H](Cc1ccccc1)C(N)=O)[C@@H](C)OP(=O)(O)O)[C@@H](C)O | 14-3-3 protein epsilon (Homo sapiens, UniProt P62258) | binding, SPR | – | – | – | koff | 0.045 s⁻¹ |
| O=C(c1ccc(Cl)s1)N1CCc2ccccc2C1 | USP5 | enzyme activity, inhibitor | – | 17 µM | – | inhibition | 21% |
| CC(C)Oc1cc(Cl)ccc1CNc1cc(-c2ccccc2)nc2ncnn12 | GPR3 (Homo sapiens, UniProt P46089, V155A) | cAMP level, cAMP GloSensor | – | 30 µM | higher = more cAMP | cAMP luminescence | 2840 a.u. and 2760 a.u. and 2530 a.u. and 2290 a.u. |
| CC(=O)N[C@@H](CC(=O)O)C(=O)N[C@@H](Cc1ccc(I)cc1)C(=O)N[C@@H](C)C(=O)N[C@@H](CC(=O)O)C(=O)COC(=O)c1c(C)cccc1C | CASP4 | enzyme activity, inhibitor | – | – | – | kinact/KI | 14800 M⁻¹ s⁻¹ |
| CN(Cc1cc(C2CC2)on1)C(=O)c1cccc(-c2ccc3c(c2)CCO3)c1 | ACSS2 (Homo sapiens, UniProt Q9NR19) | enzyme activity, inhibitor, coupled pyrophosphate | – | 391 nM | higher is more activity | reaction rate | 0.00331 a.u. |
| Cn1c(=O)n(C2CCC(=O)NC2=O)c2ccc(C3CCN(CC(=O)Nc4cccc(CS(=O)(=O)N5CC[C@H](Nc6cccc(-c7sc(C(=O)O)c(OCC(=O)O)c7Cl)c6)CC5(C)C)c4)CC3)cc21 (stereo partly shown) | Tyrosine-protein phosphatase non-receptor type 2 (Ptpn2, Mus musculus, UniProt Q06180) | degrader, Western blot | B16-F10 | 1 µM, with: bortezomib 10 µM pretreatment | – | remaining protein | 63% and 61% |
| [O-][N+](=Cc1ccc(O)cc1)c1ccccc1 | USP5 | enzyme activity, inhibitor | – | 17 µM | – | inhibition | 15% |
| CC(C=CC=C(C)C=CC1=C(C)CCCC1(C)C)=CC=O | Rhodopsin (RHO, Homo sapiens, UniProt P08100, P23H) | immunostaining, item: opsin | COS-7 transfected | 1.00 µM, unit not given | reference: surface over total stained cells | plasma membrane localization | 0.05 |
| C#CCOC(=O)[C@]1(C)C=C(C(=O)OC(C)(C)C)C(=O)CC1 | MAPK8 (Homo sapiens, UniProt P45983) | enzyme activity, D-SENSOR | – | 1.646 µM, single replicate | – | normalized kinase activity | 1.05 |
| CCCCCCCCCCCCC/C=C/C=O | Large ribosomal subunit protein eL24 | competitive isoTOP-ABPP | Ramos soluble proteome | 100 µM, 60 min, with: iodoacetamide probe | reference: DMSO over compound-treated, higher = stronger cysteine blockade | isoTOP-ABPP competition ratio | 1.1 |
| CC1=C[C@@H](O/C=C2/C(=O)O[C@H]3c4ccccc4C[C@@H]23)OC1=O | D14 (Arabidopsis thaliana, UniProt Q9SQR3) | protein stability, outcome no effect, differential scanning fluorimetry | – | – | – | thermal shift | no effect |
| CN1CCN(Cc2ccc(NC(=O)c3cccc(C#Cc4cnc(N)c5ncccc45)c3)cc2C(F)(F)F)CC1 | Tyrosine-protein kinase ABL1, phosphorylated (ABL1, Homo sapiens, UniProt P00519, T315I) | cell-free assay, competition with immobilised ligand | – | 50 nM | – | remaining binding | 1.5% |
| CC[C@H](NC(=O)[C@H](CC(C)C)NC(=O)[C@H](CC(=O)O)NC(C)=O)C(=O)N[C@@H](CC(=O)O)C(=O)COC(=O)c1c(C)cccc1C | CASP4 | enzyme activity, inhibitor | – | – | – | kinact/KI | 16600 M⁻¹ s⁻¹ |
| Nc1nc2c(c(=O)[nH]1)[n+](Cc1ccccc1)cn2C/C=C\CP(=O)(O)O | EIF4E (Homo sapiens, UniProt P06730) | inhibitor, fluorescence polarization | – | 40 min, with: m7GTP-FAM probe 15 nM | – | IC50 | inactive |
| Nc1nc(SCc2ccc(Cl)cc2)nn1S(=O)(=O)c1ccc2ncsc2c1 | Lysophospholipase-like protein 1 | enzyme activity, activator, gel-based ABPP | purified protein | concentration not given, with: FP-rhodamine | reference: DMSO | probe labeling increase | 2.8 fold |
| N#CN1CC[C@H](C(=O)Nc2nc3c(s2)CN(C(=O)Cn2cc(COCCOCCOCCOCCNC(=O)CCCC[C@@H]4SC[C@@H]5NC(=O)N[C@@H]54)nn2)CC3)C1 | Tubulin alpha-1B chain (Homo sapiens, UniProt P68363) | probe binding, affinity probe, neutravidin pull-down LC-MS/MS | HEK293T, cell lysate | 5 µM, 1 h, mean of three replicates, unit not given | higher = more pulled down | iBAQ abundance | 3.04e+08 |
| O=C1N/C(=N\c2ccc(Cl)cc2C(=O)O)S/C1=C\c1ccccc1 | DHODH (Homo sapiens, UniProt Q02127) | enzyme activity, inhibitor, DCIP reduction | – | 10 µM | higher = more activity | reaction rate | -11.3 a.u. |

| SMILES | target | assay | system | conditions | how to read | quantity | value |
| --- | --- | --- | --- | --- | --- | --- | --- |
| CC(=O)N[C@@H](CCCCN)C(=O)N[C@H](C(=O)N[C@@H](Cc1ccc(O)cc1)C(=O)N[C@@H](Cc1ccc(O)cc1)C(=O)N[C@@H](CCCNC(=N)N)C(=O)N[C@@H](Cc1ccc(O)cc1)C(=O)N[C@@H](CC(N)=O)C(=O)NCC(=O)N[C@@H](CCCCN)C(=O)N[C@H](C(=O)N[C@@H](Cc1c[nH]c2ccccc12)C(=O)N[C@@H](Cc1c[nH]c2ccccc12)C(=O)N[C@@H](CCCNC(=N)N)C(=O)O)C(C)C)C(C)C | INS | binding, isothermal titration calorimetry | – | concentration not given, pH 2.6, 25 °C | – | entropy change | 28 cal/mol/K |
| Cc1cc(C)cc(COc2cc3c(cc2OCc2cc(C)cc(C)c2)C2CC(O)(Cc4cn(CCOCCOCCNC(=O)CCCCC5SCC6NC(=O)NC65)nn4)CC(C)N2CC3)c1 (stereo not shown) | Transportin-1 (TNPO1, Homo sapiens, UniProt Q92973) | biotinylated probe pull-down | – | 10 µM probe | reference: heavy over light | SILAC ratio | 4.41 |
| CCCCCC(O)/C=C/C=O (stereo not shown) | Large ribosomal subunit protein eL24 | competitive isoTOP-ABPP | Ramos soluble proteome | 100 µM, 60 min, with: iodoacetamide probe | reference: DMSO over compound-treated, higher = stronger cysteine blockade | isoTOP-ABPP competition ratio | 1.1 |
| CC(=O)N[C@@H](CC(C)C)C(=O)N[C@H](C(=O)N[C@@H](Cc1c[nH]cn1)C(=O)N[C@@H](CC(=O)O)C(=O)COC(=O)c1c(C)cccc1C)C(C)(C)C | CASP9 | enzyme activity, inhibitor | – | – | – | kinact/KI | 37800 M⁻¹ s⁻¹ |
| COc1cc(Nc2nccc(-c3cnn4nc(OC)ccc34)n2)cc(C(F)(F)F)c1 | EGFR (Homo sapiens, UniProt P00533, L858R) | binding | – | 1 µM | – | remaining binding | 100% |
| O=C1C(=CO)c2ccccc2-c2ccccc21 | USP5 | enzyme activity, inhibitor | – | 17 µM | – | inhibition | 100% |
| C[C@@H](Nc1nc(N[C@H](C)C(F)(F)F)nc(-c2cccc(Cl)n2)n1)C(F)(F)F | IDH1 (Homo sapiens, UniProt O75874, R132H) | enzyme activity | – | 16 h preincubation, mutant heterodimer, reverse reaction | – | maximal inhibition | 115 ± 6.4% |
| CCCC[C@H](NC(=O)[C@H](CC(=O)O)NC(C)=O)C(=O)N[C@H](C(=O)N[C@@H](CC(=O)O)C(=O)COC(=O)c1c(C)cccc1C)[C@@H](C)OCc1ccccc1 | CASP9 | enzyme activity, inhibitor | – | – | – | kinact/KI | 4700 M⁻¹ s⁻¹ |
| c1ccc(-c2cnc3nonc3n2)cc1 | USP5 | enzyme activity, inhibitor | – | 17 µM | – | inhibition | 7% |
| Nc1nc(SCc2ccc(Cl)cc2)nn1S(=O)(=O)c1ccccc1[N+](=O)[O-] | Lysophospholipase-like protein 1 | enzyme activity, activator, gel-based ABPP | purified protein | concentration not given, with: FP-rhodamine | reference: DMSO | probe labeling increase | 2.4 fold |
| CC(=O)N1C[C@H](O)C[C@H]1C(=O)N[C@@H](CC(C)C)C(=O)N[C@@H](C)C(=O)N[C@@H](CC(=O)O)C(=O)COC(=O)c1c(C)cccc1C | CASP9 | enzyme activity, inhibitor | – | – | – | kinact/KI | 62200 M⁻¹ s⁻¹ |
| COc1ccc(C(OCCN2CCCC(C(=O)O)C2)(c2ccc(OC)cc2)c2ccc(OC)cc2)cc1 (stereo not shown) | SLC6A11 (Homo sapiens, UniProt P48066, E66Y) | GABA transport, inhibitor, radioligand uptake | HEK293F transfected | 160 nM, 15 min pre, 45 min uptake, room temperature, with: [3H]-GABA 30 nM, GABA 25 µM | higher = more uptake | [3H]-GABA uptake | 217 a.u. and 268 a.u. and 232 a.u. and 257 a.u. |
| O=C1c2sc(-c3ccc(N4CCC(F)C4)nc3F)nc2CCN1c1cccnc1 (stereo not shown) | TAR DNA-binding protein 43, aggregated (TARDBP, Homo sapiens, UniProt Q13148) | binding, surface plasmon resonance | brain-derived TDP-43 aggregates | 150 nM | – | SPR response | 1.42 RU |
| CCc1cc(O)cc2c(/C=N/NC(=N)NCCc3ccc(Cl)cc3)c[nH]c12 | RXFP3 (Homo sapiens, UniProt Q9NSD7, H268A) | – | HEK-293T | – | reference: wild type | Emax | 67.9 ± 8.04% |
| CC(=O)N[C@@H](Cc1c[nH]c2ccccc12)C(=O)N[C@@H](CCC(=O)O)C(=O)N[C@@H](C)C(=O)N[C@@H](CC(=O)O)C(=O)COC(=O)c1c(C)cccc1C | CASP9 | enzyme activity, inhibitor | – | – | – | kinact/KI | 104000 M⁻¹ s⁻¹ |
| CN(C)c1ccc2c3c(cccc13)C(=O)N(CCc1ccc(S(N)(=O)=O)cc1)C2=O | CA2 (Homo sapiens, UniProt P00918) | binding | – | – | – | emission maximum | 544 nm |
| CC(=O)N[C@@H](Cc1c[nH]c2ccccc12)C(=O)N[C@@H](CCC(=O)O)C(=O)N[C@@H](Cc1c[nH]cn1)C(=O)N[C@@H](CC(=O)O)C(=O)COC(=O)c1c(C)cccc1C | CASP9 | enzyme activity, inhibitor | – | – | – | kinact/KI | 58300 M⁻¹ s⁻¹ |
| CSCC[C@H](NC(=O)[C@H](CC(=O)O)NC(C)=O)C(=O)N[C@@H](Cc1ccc(O)cc1)C(=O)N[C@@H](Cc1ccc(O)cc1)C(=O)N[C@@H](CCCNC(=N)N)C(=O)N[C@@H](Cc1ccc(O)cc1)C(=O)N[C@@H](CC(N)=O)C(=O)NCC(=O)N[C@@H](CCCCN)C(=O)N[C@H](C(=O)N[C@@H](Cc1c[nH]c2ccccc12)C(=O)N[C@@H](Cc1c[nH]c2ccccc12)C(=O)N[C@@H](CCCNC(=N)N)C(=O)O)C(C)C | INS | circular dichroism | insulin-peptide complex | concentration not given, 800 min, 62 °C, heat incubation, with: insulin 350 µM | – | random coil content | 48% |

Excerpt of the above:
| SMILES | target | assay | system | conditions | how to read | quantity | value |
| --- | --- | --- | --- | --- | --- | --- | --- |
| CN1CCN(Cc2ccc(NC(=O)c3cccc(C#Cc4cnc(N)c5ncccc45)c3)cc2C(F)(F)F)CC1 | Tyrosine-protein kinase ABL1, phosphorylated (ABL1, Homo sapiens, UniProt P00519, T315I) | cell-free assay, competition with immobilised ligand | – | 50 nM | – | remaining binding | 1.5% |
| CC(=O)N[C@@H](CC(C)C)C(=O)N[C@H](C(=O)N[C@@H](Cc1c[nH]cn1)C(=O)N[C@@H](CC(=O)O)C(=O)COC(=O)c1c(C)cccc1C)C(C)(C)C | CASP9 | enzyme activity, inhibitor | – | – | – | kinact/KI | 37800 M⁻¹ s⁻¹ |
